Published values of several laboratories.
Each line is one published result; not all experiments were run side by side. ± gives the spread as reported. Converted amounts (≈) assume the structure as drawn.
Sequence of UniProt P11229 (whole entry, looked up): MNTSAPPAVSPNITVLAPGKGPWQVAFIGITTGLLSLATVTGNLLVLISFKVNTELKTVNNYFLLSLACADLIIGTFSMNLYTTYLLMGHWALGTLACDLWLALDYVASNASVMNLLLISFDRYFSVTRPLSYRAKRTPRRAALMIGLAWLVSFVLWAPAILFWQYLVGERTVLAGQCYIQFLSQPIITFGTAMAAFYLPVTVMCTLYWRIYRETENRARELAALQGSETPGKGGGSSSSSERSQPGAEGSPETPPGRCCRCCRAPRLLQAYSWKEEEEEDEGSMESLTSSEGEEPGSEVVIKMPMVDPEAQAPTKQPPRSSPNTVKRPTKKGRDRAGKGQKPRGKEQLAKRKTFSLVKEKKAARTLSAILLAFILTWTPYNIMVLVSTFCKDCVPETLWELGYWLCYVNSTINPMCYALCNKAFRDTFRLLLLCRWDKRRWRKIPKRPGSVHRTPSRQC

c1ccc(-c2nc(-c3ccc4ccccc4c3)c[nH]2)cc1 has a worm killing of 0% (Schistosoma mansoni; adult male worms; 5 µM).
The IC50 of CCOC(=O)C(CC)NC(=O)CN1C(=O)S/C(=C\c2ccc(OC)cc2)C1=O (stereo not drawn) is reported as > 10 µM (Leishmania donovani; parasite growth; 24 h, intracellular, amastigote).
For CC(C)(C)NCC(SS(=O)(=O)O)c1ccccc1 (stereo not drawn), “female worm burden reduction” read 89% (Schistosoma mansoni; mice; oral, 600 mg/kg single dose, 15 days post-infection; reference: vehicle).
The MIC of CC1CCN(Cc2cc(N(C)C)c3c(c2O)C(=O)C2=C(O)[C@]4(O)C(=O)C(C(N)=O)=C(O)[C@@H](N(C)C)[C@@H]4C[C@@H]2C3)CC1 is reported as 0.25 µg/mL (≈ 0.44 µM) (Enterococcus faecalis; JH2-2(pMV158), Tet L efflux).
CCOC(=O)C(C)NC(=O)CN1C(=O)N/C(=C\c2ccc(C)cc2)C1=O (stereo not drawn) has an IC50 of > 100 µM (Leishmania major; parasite growth, resazurin; promastigote).
For Nc1ncnc2c1ccn2[C@H]1C[C@H](O)[C@@H](CO)O1, activity read “inactive” (animal trypanosomes; parasite growth; concentration not given, panel of strains).
CC(C)C[C@H](NC(=O)[C@H](Cc1ccc(O)cc1)NC(=O)[C@@H]1CCCN1C(=O)[C@H](CCCNC(=N)N)NC(=O)[C@@H]1CCCN1C(=O)[C@H](CCCCN)NC(=O)[C@H](CC(=O)O)NC(=O)[C@@H]1CCCN1C(=O)[C@H](CCCNC(=N)N)NC(=O)C1(N)CCCCC1)C(=O)N1CCC[C@H]1C(=O)N[C@@H](CCCNC(=N)N)C(=O)N1CCC[C@H]1C(=O)N[C@@H](CCCNC(=N)N)C(=O)N1CCC[C@H]1C(=O)N1CCC[C@H]1C(=O)N[C@@H](CCCNC(=N)N)C(=O)N1CCC[C@H]1C(=O)N[C@H](C(=O)N[C@@H](CCCNC(=N)N)C(=O)N[C@@H](CSc1c(F)c(F)c(SC[C@H](NC(=O)[C@H](CCCNC(=N)N)NC(=O)[C@@H](NC(=O)[C@@H]2CCCN2C(=O)[C@H](CCCNC(=N)N)NC(=O)[C@@H]2CCCN2C(=O)[C@@H]2CCCN2C(=O)[C@H](CCCNC(=N)N)NC(=O)[C@@H]2CCCN2C(=O)[C@H](CCCNC(=N)N)NC(=O)[C@@H]2CCCN2C(=O)[C@H](CC(C)C)NC(=O)[C@H](Cc2ccc(O)cc2)NC(=O)[C@@H]2CCCN2C(=O)[C@H](CCCNC(=N)N)NC(=O)[C@@H]2CCCN2C(=O)[C@H](CCCCN)NC(=O)[C@H](CC(=O)O)NC(=O)[C@@H]2CCCN2C(=O)[C@H](CCCNC(=N)N)NC(=O)C2(N)CCCCC2)C(C)C)C(=O)NN)c(F)c1F)C(=O)NN)C(C)C has a PI-positive bacteria of 50 to 60% (Acinetobacter baumannii; inner membrane permeabilization, PI/SYTO flow cytometry; 1 × MBC).
CCOC(=O)C(NC(=O)CN1C(=O)/C(=C/c2ccc3c(c2)OCO3)SC1=S)C(C)C (stereo not drawn) gave an IC50 of > 10 µM (Leishmania major; parasite growth; 24 h, intracellular, amastigote).
CC1(CCCCCCCCCCOCCCOP(=O)(O)CO[C@H](CO)Cn2ccc(N)nc2=O)COC1 gave a selectivity index of > 98 (human alphaherpesvirus 2; HFF, G; reference: CC50 over EC50).
CN(C)c1cc(CNc2ccccc2)c(O)c2c1C[C@H]1C[C@H]3[C@H](N(C)C)C(O)=C(C(N)=O)C(=O)[C@@]3(O)C(O)=C1C2=O gave an MIC of 2 µg/mL (≈ 3.55 µM) (Enterococcus faecalis; microbial growth, broth dilution).
With Cc1cc2[nH]c(C(=O)NC3CCCCC3)c(CN3CCOCC3)c2s1 the IC50 was > 10 µM (Giardia duodenalis; parasite growth; 48 h).
For Nc1ccn(C[C@@H](CO)OCP(=O)(O)OCCCS(=O)(=O)CCCCCCCCCCC2CCC2)c(=O)n1, the selectivity index was 25 (human alphaherpesvirus 3; HFF, Ellen; reference: CC50 over EC50).
Oc1ccccc1/C=N/NC(=S)Nc1cc(C(F)(F)F)cc(C(F)(F)F)c1: “biofilm formation inhibition” ~15% (Nakaseomyces glabratus; ATCC 28226; 0.5 µg/mL).
COc1c2c(cc3oc(=O)cc(-c4ccc(Cl)cc4)c13)C(=O)c1cc(C)cc(O)c1C2=O: “inhibition zone diameter” < 8 mm (Klebsiella aerogenes; 100 µg/disc).
With CC/C(=C\c1ccc(OCC(=O)NC(C(=O)N2CCSCC2)c2ccccc2)cc1)[N+](=O)[O-] (stereo not drawn) the inhibition was 63.2% (Leishmania donovani; macrophages, intracellular amastigotes; 3.125 µM, 72 h).
Cc1c2c(cc3oc(=O)cc(-c4ccc(O)cc4)c13)C(=O)c1cccc(O)c1C2=O has an inhibition zone of 15 mm (Klebsiella aerogenes; microbial growth, disc diffusion; 100 µg/disc).
With CCOC(=O)CNC(=O)CN1C(=O)S/C(=C\c2ccc(OC)c(O)c2)C1=O the IC50 was > 100 µM (Leishmania major; parasite growth, resazurin; promastigote).
c1ccc(CN2CCOCCOCCN(CCCCCCCCN3CCOCCOCCN(CCCCCCCCN4CCOCCOCCN(Cc5ccccc5)CCOCCOCC4)CCOCCOCC3)CCOCCOCC2)cc1 has a fold enhancement of 30 fold (Escherichia coli; tetracycline MIC, checkerboard; tetracycline-resistant (pBR322); 1/2 MIC, together with: tetracycline; reference: MIC alone over combination).
With CSc1ccc(CNC(=O)c2[nH]c3cc(C)sc3c2CN(C)C)cc1 the IC50 was > 10 µM (Giardia duodenalis; parasite growth; 48 h).
CC(=O)[O-].O.[Cu+2].[O-]c1ccc(Br)cc1C=NCCN1CCOCC1 — result for “inhibition zone diameter”: 19 mm (Mucor indicus; 20 µL of 100 µM per disc).
CSc1ccccc1NC(=O)c1[nH]c2cc(C)sc2c1CN1CCOCC1 gave an IC50 of 0.94 µM (Giardia duodenalis; parasite growth; 48 h).
CCC1(C)CCN(Cc2cc(N(C)C)c3c(c2O)C(=O)C2=C(O)[C@]4(O)C(=O)C(C(N)=O)=C(O)[C@@H](N(C)C)[C@@H]4C[C@@H]2C3)CC1 has an MIC of 1 µg/mL (≈ 1.68 µM) (Enterococcus faecalis; JH2-2(pMV158), Tet L efflux).
For CN[C@H](CC(C)C)C(=O)N[C@H]1C(=O)N[C@@H](CC(N)=O)C(=O)N[C@H]2C(=O)N[C@H]3C(=O)N[C@H](C(=O)N[C@H](C(=O)O)c4cc(O)cc(O)c4-c4cc3ccc4O)[C@H](O)c3ccc(c(Cl)c3)Oc3cc2cc(c3O[C@@H]2O[C@H](CO)[C@@H](O)[C@H](O)[C@H]2O[C@H]2C[C@](C)(NCc3ccc(C(=O)OCCCCCCN(Cc4ccccn4)Cc4ccccn4)cc3)[C@H](O)[C@H](C)O2)Oc2ccc(cc2Cl)[C@H]1O, the regulation factor was 3.3 ± 1 (Bacillus subtilis; protein synthesis, measured: Hom; 168; concentration not given, 10 min, at peak effective concentration; reference: untreated).
For CCOC(=O)C(C)NC(=O)CN1C(=O)S/C(=C\c2ccc(F)cc2)C1=O (stereo not drawn), the IC50 was > 10 µM (Leishmania major; parasite growth; 24 h, intracellular, amastigote).
NCC(=O)N[C@H](Cc1ccccc1)C(=O)N[C@@H](Cc1ccccc1)C(N)=O: activity “inactive” (Aplysia; feeding network activity, electrophysiology; buccal and cerebral ganglia; concentration not given).
The MIC of CN(C)c1cc(CNCc2ccco2)c(O)c2c1C[C@H]1C[C@H]3[C@H](N(C)C)C(O)=C(C(N)=O)C(=O)[C@@]3(O)C(O)=C1C2=O is reported as 1 µg/mL (≈ 1.76 µM) (Enterococcus faecalis; microbial growth, broth dilution).
For CCCCCCCCCc1nc2cc(Cl)ccc2c(=O)n1CCCN, the biofilm remaining was < 5% (Pseudomonas aeruginosa, Staphylococcus aureus; mixed biofilm; concentration not given, together with: tobramycin after pretreatment).
With CCOC(=O)C(NC(=O)CN1C(=O)N/C(=C\c2ccc3c(c2)OCO3)C1=O)C(C)C (stereo not drawn) the IC50 was > 10 µM (Leishmania donovani; parasite growth; 24 h, intracellular, amastigote).
COc1ccc(CNC(=O)c2[nH]c3cc(C)sc3c2CN2CCOCC2)cc1 has an IC50 of > 10 µM (Giardia duodenalis; parasite growth; 48 h).
CN1CCC=C(c2nsnc2OCCCCCNC(=O)CCCCCCC(=O)NCCCCCOc2nsnc2C2=CCCN(C)C2)C1 has a Ki of 5.01 nM (Muscarinic acetylcholine receptor M1 (CHRM1, Homo sapiens, UniProt P11229); ligand displacement, radioligand).
The IC50 of CCOC(=O)C(CC)NC(=O)CN1C(=O)S/C(=C\c2ccc(C)cc2)C1=O (stereo not drawn) is reported as 5.14 µM (Leishmania major; parasite growth; 72 h, intracellular, amastigote).
Cc1cc(O)cc2c1C(=O)c1c(cc3oc(=O)cc(-c4ccc(Cl)cc4)c3c1O)C2=O gave an inhibition zone of 32 mm (Klebsiella aerogenes; microbial growth, disc diffusion; 100 µg/disc).
O=C(CCC(=O)c1ccccc1)NCCN(CC(=O)Nc1ccc(I)cc1)C(=O)CCc1cn(Cc2ccccc2)nn1: antibacterial activity “inactive” (Bacillus subtilis, Staphylococcus aureus; MIC; including MRSA; up to 512 µg/mL).

For quick reference, copied from above:
CN1CCC=C(c2nsnc2OCCCCCNC(=O)CCCCCCC(=O)NCCCCCOc2nsnc2C2=CCCN(C)C2)C1 has a Ki of 5.01 nM (Muscarinic acetylcholine receptor M1 (CHRM1, Homo sapiens, UniProt P11229); ligand displacement, radioligand).
The IC50 of CCOC(=O)C(CC)NC(=O)CN1C(=O)S/C(=C\c2ccc(C)cc2)C1=O (stereo not drawn) is reported as 5.14 µM (Leishmania major; parasite growth; 72 h, intracellular, amastigote).
Cc1cc(O)cc2c1C(=O)c1c(cc3oc(=O)cc(-c4ccc(Cl)cc4)c3c1O)C2=O gave an inhibition zone of 32 mm (Klebsiella aerogenes; microbial growth, disc diffusion; 100 µg/disc).
O=C(CCC(=O)c1ccccc1)NCCN(CC(=O)Nc1ccc(I)cc1)C(=O)CCc1cn(Cc2ccccc2)nn1: antibacterial activity “inactive” (Bacillus subtilis, Staphylococcus aureus; MIC; including MRSA; up to 512 µg/mL).
